Published values gathered from unrelated publications.
Each line is one published result; not all experiments were run side by side. Numbers after ± are the reported error.
Htr1a: 5-hydroxytryptamine receptor 1A (Htr1a, Rattus norvegicus, UniProt P19327)
UniProt P19327, sequence (whole entry, looked up): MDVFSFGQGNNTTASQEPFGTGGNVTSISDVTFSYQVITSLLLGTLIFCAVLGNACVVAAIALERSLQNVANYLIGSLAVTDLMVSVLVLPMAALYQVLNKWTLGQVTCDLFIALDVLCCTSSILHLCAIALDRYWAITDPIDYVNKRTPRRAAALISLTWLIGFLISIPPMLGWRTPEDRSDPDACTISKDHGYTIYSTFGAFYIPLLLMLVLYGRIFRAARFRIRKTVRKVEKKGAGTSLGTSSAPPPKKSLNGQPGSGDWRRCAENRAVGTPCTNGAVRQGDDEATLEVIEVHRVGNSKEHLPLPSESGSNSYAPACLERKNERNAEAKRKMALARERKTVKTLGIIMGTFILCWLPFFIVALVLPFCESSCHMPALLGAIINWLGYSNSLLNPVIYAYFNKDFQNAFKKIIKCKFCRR
CA12: Carbonic anhydrase 12 (CA12, Homo sapiens, UniProt O43570)
UniProt O43570, sequence (whole entry, looked up): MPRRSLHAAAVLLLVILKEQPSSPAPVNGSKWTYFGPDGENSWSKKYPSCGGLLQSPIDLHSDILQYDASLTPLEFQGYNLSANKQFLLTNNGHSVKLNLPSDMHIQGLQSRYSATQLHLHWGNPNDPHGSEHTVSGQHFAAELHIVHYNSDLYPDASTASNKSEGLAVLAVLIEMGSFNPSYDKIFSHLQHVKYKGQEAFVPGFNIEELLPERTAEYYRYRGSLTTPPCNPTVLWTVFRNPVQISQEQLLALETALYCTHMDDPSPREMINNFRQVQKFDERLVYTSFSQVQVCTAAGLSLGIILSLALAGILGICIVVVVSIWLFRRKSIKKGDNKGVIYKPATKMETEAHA
FUT9: 4-galactosyl-N-acetylglucosaminide 3-alpha-L-fucosyltransferase 9 (FUT9, Homo sapiens, UniProt Q9Y231)
UniProt Q9Y231, sequence (whole entry, looked up): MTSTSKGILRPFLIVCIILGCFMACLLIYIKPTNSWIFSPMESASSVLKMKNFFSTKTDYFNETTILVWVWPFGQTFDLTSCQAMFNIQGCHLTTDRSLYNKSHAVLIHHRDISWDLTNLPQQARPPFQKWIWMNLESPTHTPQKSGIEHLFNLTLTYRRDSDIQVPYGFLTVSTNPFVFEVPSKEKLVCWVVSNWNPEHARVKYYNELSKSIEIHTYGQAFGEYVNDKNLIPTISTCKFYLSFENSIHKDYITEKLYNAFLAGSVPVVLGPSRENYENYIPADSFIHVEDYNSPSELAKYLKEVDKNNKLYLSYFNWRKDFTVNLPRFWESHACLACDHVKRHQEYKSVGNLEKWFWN
CASP1: Caspase-1 (CASP1, Homo sapiens, UniProt P29466)
UniProt P29466, sequence (whole entry, looked up): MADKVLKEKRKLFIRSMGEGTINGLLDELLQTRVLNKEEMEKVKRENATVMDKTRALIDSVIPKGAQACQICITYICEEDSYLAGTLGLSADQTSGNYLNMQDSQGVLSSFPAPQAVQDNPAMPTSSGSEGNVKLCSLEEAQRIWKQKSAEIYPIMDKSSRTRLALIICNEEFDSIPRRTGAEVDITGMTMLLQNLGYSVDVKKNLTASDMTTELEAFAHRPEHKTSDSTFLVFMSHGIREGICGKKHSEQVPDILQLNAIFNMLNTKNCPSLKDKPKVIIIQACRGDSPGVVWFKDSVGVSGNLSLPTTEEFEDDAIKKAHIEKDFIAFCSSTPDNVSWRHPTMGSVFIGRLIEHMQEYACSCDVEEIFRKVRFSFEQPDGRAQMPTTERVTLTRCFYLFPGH
Muscleblind-like protein 1 with (CUG)12 RNA: Muscleblind-like protein 1, with (CUG)12 RNA (Homo sapiens, UniProt Q9NR56)
UniProt Q9NR56, sequence (whole entry, looked up): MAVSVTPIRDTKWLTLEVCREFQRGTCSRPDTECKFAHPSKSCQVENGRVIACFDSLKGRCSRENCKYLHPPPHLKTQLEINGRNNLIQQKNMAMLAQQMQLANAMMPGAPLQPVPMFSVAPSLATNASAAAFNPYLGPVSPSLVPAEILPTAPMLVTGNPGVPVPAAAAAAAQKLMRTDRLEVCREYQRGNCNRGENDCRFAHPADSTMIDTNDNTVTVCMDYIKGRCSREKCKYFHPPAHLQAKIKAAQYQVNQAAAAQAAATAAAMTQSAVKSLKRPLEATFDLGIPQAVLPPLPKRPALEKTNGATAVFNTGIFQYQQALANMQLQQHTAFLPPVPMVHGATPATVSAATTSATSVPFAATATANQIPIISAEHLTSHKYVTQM
5-hydroxytryptamine receptor 2A: 5-hydroxytryptamine receptor 2A (Rattus norvegicus, UniProt P14842)
UniProt P14842, sequence (whole entry, looked up): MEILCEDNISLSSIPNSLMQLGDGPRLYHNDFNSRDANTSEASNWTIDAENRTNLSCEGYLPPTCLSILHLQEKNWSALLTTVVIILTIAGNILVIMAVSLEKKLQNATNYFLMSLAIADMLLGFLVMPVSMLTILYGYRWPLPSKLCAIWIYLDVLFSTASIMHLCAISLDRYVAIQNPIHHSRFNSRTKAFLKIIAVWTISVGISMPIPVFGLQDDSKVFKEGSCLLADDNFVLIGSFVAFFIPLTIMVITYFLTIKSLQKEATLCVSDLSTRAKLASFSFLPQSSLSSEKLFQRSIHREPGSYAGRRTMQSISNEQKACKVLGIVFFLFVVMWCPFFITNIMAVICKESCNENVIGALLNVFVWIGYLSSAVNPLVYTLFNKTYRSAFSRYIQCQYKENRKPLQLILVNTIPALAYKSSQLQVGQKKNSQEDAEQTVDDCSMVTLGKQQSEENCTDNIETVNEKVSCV
TACR1: Substance-P receptor (TACR1, Homo sapiens, UniProt P25103)
UniProt P25103, sequence (whole entry, looked up): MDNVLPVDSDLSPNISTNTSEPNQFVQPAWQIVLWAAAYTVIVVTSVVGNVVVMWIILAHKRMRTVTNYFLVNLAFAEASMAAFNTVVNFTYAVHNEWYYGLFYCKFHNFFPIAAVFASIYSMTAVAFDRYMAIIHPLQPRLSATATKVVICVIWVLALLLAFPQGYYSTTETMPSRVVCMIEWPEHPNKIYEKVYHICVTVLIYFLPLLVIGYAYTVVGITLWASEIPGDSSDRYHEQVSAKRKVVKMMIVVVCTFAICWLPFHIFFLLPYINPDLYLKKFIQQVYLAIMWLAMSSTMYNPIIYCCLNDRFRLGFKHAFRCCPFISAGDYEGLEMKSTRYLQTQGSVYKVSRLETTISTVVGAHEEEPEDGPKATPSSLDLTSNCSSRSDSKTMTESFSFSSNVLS
BACE2: Beta-secretase 2 (BACE2, Homo sapiens, UniProt Q9Y5Z0)
UniProt Q9Y5Z0, sequence (whole entry, looked up): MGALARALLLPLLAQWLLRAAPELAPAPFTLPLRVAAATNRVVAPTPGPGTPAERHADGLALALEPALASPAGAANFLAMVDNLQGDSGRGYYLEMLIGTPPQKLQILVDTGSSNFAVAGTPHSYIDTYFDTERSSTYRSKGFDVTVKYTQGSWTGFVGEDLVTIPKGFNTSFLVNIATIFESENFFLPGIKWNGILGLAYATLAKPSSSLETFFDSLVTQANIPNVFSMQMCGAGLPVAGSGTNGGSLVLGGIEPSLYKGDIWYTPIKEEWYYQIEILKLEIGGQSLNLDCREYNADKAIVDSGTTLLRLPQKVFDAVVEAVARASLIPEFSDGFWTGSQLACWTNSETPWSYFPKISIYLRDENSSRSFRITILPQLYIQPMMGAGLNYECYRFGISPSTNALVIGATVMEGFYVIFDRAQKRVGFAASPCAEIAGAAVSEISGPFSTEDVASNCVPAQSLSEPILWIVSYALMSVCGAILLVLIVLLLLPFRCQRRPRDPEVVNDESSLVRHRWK
CHRM4: Muscarinic acetylcholine receptor M4 (CHRM4, Homo sapiens, UniProt P08173)
UniProt P08173, sequence (whole entry, looked up): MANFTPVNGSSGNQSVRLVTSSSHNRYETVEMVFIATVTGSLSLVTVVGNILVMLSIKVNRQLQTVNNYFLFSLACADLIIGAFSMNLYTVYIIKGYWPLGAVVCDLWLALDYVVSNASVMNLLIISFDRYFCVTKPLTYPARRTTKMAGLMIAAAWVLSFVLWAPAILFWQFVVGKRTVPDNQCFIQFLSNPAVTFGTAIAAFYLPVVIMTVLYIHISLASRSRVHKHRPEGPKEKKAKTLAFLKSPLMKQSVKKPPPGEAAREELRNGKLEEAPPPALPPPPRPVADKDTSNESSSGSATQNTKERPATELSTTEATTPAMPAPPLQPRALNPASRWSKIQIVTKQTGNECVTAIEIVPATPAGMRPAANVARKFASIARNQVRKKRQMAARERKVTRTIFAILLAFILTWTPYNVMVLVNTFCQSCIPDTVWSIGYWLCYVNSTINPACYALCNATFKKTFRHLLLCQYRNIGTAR
MAPK8: Mitogen-activated protein kinase 8 (MAPK8, Homo sapiens, UniProt P45983)
UniProt P45983, sequence (whole entry, looked up): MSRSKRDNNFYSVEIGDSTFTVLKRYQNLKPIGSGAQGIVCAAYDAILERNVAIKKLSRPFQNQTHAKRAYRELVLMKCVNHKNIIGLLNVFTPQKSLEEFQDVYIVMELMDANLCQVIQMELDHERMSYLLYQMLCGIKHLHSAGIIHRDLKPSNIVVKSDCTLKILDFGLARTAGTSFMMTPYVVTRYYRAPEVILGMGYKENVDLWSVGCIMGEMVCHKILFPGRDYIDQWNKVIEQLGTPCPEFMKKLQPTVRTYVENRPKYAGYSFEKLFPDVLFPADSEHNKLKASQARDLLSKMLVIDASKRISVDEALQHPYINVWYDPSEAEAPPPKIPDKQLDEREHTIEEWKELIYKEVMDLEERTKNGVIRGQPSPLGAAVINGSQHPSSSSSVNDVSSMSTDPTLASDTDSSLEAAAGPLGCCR
Beta-lactamase CTX-M-14: Beta-lactamase CTX-M-14 (Escherichia coli, UniProt Q9L5C7)
SLC10A1: Hepatic sodium/bile acid cotransporter (SLC10A1, Homo sapiens, UniProt Q14973)
UniProt Q14973, sequence (whole entry, looked up): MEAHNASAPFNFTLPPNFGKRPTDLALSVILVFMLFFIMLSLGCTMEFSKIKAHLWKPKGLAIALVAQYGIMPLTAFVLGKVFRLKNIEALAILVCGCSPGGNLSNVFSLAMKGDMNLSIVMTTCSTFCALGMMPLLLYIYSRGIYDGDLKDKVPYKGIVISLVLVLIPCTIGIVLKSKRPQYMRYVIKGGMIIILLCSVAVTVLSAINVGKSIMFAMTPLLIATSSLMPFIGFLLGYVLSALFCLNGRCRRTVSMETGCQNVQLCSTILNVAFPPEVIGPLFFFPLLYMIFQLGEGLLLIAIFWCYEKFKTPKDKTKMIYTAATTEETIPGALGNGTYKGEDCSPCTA
UniProt P51993, sequence (whole entry, looked up): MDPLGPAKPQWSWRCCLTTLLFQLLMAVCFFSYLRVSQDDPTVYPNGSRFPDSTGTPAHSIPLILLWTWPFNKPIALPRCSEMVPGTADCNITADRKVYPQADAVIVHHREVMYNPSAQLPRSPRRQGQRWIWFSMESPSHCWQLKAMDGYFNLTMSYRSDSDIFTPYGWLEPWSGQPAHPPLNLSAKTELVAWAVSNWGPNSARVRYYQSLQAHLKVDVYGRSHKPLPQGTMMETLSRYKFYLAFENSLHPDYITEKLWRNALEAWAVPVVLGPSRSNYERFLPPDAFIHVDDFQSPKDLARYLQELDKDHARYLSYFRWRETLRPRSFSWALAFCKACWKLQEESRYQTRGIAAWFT

SMILES = Cc1cc(CN2CCCC2)ccc1OCCCN1CCN(c2cccc3sccc23)CC1; target = Htr1a; test = cell-free assay, radioligand; Ki = 0.155 µM
SMILES = COc1cccc(/C=N/NC(=O)CSc2nc3ccccc3c(=O)n2CCc2ccc(S(N)(=O)=O)cc2)c1; target = CA12; test = enzyme activity, inhibitor, stopped-flow; Ki = 0.0592 µM
SMILES = Nc1nc2c(ncn2[C@@H]2O[C@H](COP(=O)(O)OP(=O)(O)O[C@H]3O[C@@H](CNC(=O)Cc4ccccc4)[C@@H](O)[C@@H](O)[C@@H]3F)[C@@H](O)[C@H]2O)c(=O)[nH]1; target = FUT9; test = enzyme activity, inhibitor; Ki = 10.6 µM
SMILES = COCCOc1cc2ncnc(Nc3cccc(-c4cn(CC(=O)Nc5ccc(S(N)(=O)=O)cc5)nn4)c3)c2cc1OCCOC; target = CA12; test = enzyme activity, inhibitor, stopped-flow; Ki = 0.007 µM
SMILES = CC(=O)N[C@@H](CC(=O)O)C(=O)N[C@H](C(=O)N1CCC[C@H]1C(=O)N[C@H](C=O)CC(=O)O)C(C)C; target = CASP1; test = enzyme activity, inhibitor, fluorescence; conditions = pH 7; Ki = 0.0708 µM
SMILES = C[C@H]1CN(C(=O)c2cn(-c3ccnc(N)n3)c3cc(C#CC4(O)CCCCC4)ccc23)CCN1; target = PAK1 (Homo sapiens, UniProt Q13153); test = enzyme activity, inhibitor, FRET; Ki = 6.02 µM
SMILES = Nc1nc2c([C@@H]3N[C@H](COP(=O)(O)O)[C@@H](O)[C@H]3O)c[nH]c2c(=O)[nH]1; target = Hypoxanthine-guanine-xanthine phosphoribosyltransferase (Plasmodium falciparum, UniProt P20035); test = enzyme activity, inhibitor; conditions = pH 7.4; Ki = 0.014 µM
SMILES = COc1ccc2nc3cc(Cl)ccc3c(NCCCCc3c(N)nc(N)nc3N)c2c1; target = Muscleblind-like protein 1 with (CUG)12 RNA; test = MBNL1-RNA binding, gel mobility shift; conditions = no tRNA, together with: (CUG)12 RNA, 1000 nM MBNL1; Ki = 5.5 ± 1.4 µM
SMILES = COc1cc(CN2CCOCC2)ccc1OCCCN1CCN(c2cccc3sccc23)CC1; target = 5-hydroxytryptamine receptor 2A; test = cell-free assay; Ki = 0.118 µM
SMILES = Cc1ccccc1-c1cc(N2CCN(CCCN3C(=O)C=CC3=O)CC2)ccc1N(C)C(=O)C(C)(C)c1cc(C(F)(F)F)cc(C(F)(F)F)c1; target = TACR1; test = cell-free assay, BRET; conditions = pH 6; Ki = 0.0123 µM
SMILES = COc1cccc(CNC[C@@H](O)[C@H](Cc2ccccc2)NC(=O)c2cc(C)cc(C(=O)N(C)[C@H](C)c3ccccc3)c2)c1; target = BACE2; Ki = 0.014 ± 0.0066 µM
SMILES = CCC(=O)NCc1cc(C(=O)NCCCC(=O)NCCCCCOc2nsnc2C2=CCCN(C)C2)cc(C(=O)NCCN2CCN(CCCCC3CCN(CC(=O)N4c5ccccc5NC(=O)c5ccccc54)CC3)CC2)c1; target = CHRM4; test = ligand displacement, radioligand; Ki = 0.00135 µM
SMILES = COC(=O)[C@@]1(Cc2ccccc2)C=C(C(=O)OC(C)(C)C)C(=O)CC1; target = MAPK8; test = ligand displacement, FP; Ki = 1.8 µM
SMILES = O=C1Nc2ccccc2N(C(=O)CN2CCC(CCCCN3CCC(OC(=O)C(c4ccccc4)c4ccccc4)CC3)CC2)c2ccccc21; target = CHRM4; test = ligand displacement, radioligand; Ki = 0.00851 µM
SMILES = Cc1cc(CN2CCOCC2)ccc1OCCCN1CCN(c2cccc3sccc23)CC1; target = Htr1a; test = cell-free assay, radioligand; Ki = 0.0146 µM
SMILES = Cc1cccc(-c2ccc([C@@H]3[C@@H](CO)N4CCCCN(S(=O)(=O)c5ccccc5C(F)(F)F)C[C@@H]34)cc2)c1C; target = IDE (Homo sapiens, UniProt P14735); Ki = 0.0043 µM
SMILES = Nc1nc2c(ncn2[C@@H]2O[C@H](COP(=O)(O)OP(=O)(O)O[C@H]3O[C@@H](CNC(=O)CCCc4ccccc4)[C@@H](O)[C@@H](O)[C@@H]3F)[C@@H](O)[C@H]2O)c(=O)[nH]1; target = FUT6 (Homo sapiens, UniProt P51993); test = enzyme activity, inhibitor; Ki = 9.7 µM
SMILES = O=Cc1ccc(-c2cn([C@@H]3O[C@H](COP(=O)(O)OP(=O)(O)O[C@H]4O[C@H](CO)[C@H](O)[C@H](O)[C@H]4O)[C@@H](O)[C@H]3O)c(=O)[nH]c2=O)s1; target = LgtC (lgtC, Neisseria meningitidis, UniProt Q93EK7); test = galactosyltransferase activity, inhibitor, radiochemical; conditions = together with: 5 µM UDP-galactose; Ki = 0.45 µM
SMILES = CCC(=O)NCc1cc(C(=O)NCCN2CCN(CCCCC3CCN(CC(=O)N4c5ccccc5NC(=O)c5ccccc54)CC3)CC2)cc(C(=O)NCCN2CCN(CCOC(=O)C3c4ccccc4Oc4ccccc43)CC2)c1; target = CHRM4; test = ligand displacement, radioligand; Ki = 0.00513 µM
SMILES = CC(=O)N[C@H]1[C@H](Oc2ccccc2-c2cccc(C(=O)O)c2)O[C@H](CO)[C@H](O)[C@@H]1O; target = Adhesin FmlH, lectin domain (Escherichia coli, UniProt Q1RBS0); test = inhibitor, competitive bio-layer interferometry; system = UPEC UTI89; conditions = together with: immobilized Ser-TF; Ki = ~0.09 µM
SMILES = O=C(Nc1cccc(-c2nn[nH]n2)c1)c1cc(-c2cc[nH]n2)cc(C(F)(F)F)c1; target = Beta-lactamase CTX-M-14; test = enzyme activity, inhibitor, absorbance; conditions = pH 7; Ki = 12.6 µM
SMILES = Fc1cc(CN2CCOCC2)ccc1OCCCN1CCN(c2cccc3sccc23)CC1; target = 5-hydroxytryptamine receptor 2A; test = cell-free assay; Ki = 0.0115 µM
SMILES = COc1cccc(C(=O)CC(N)C(=O)O)c1 (stereo not drawn); target = Kynureninase (kynU, Pseudomonas fluorescens, UniProt P83788); test = inhibitor; Ki = 10 µM
SMILES = CN(C)CCNC(=O)c1cccc2c(NCCCCc3c(N)nc(N)nc3N)c3ccccc3nc12; target = Muscleblind-like protein 1 with (CUG)12 RNA; test = MBNL1-RNA binding, gel mobility shift; conditions = no tRNA, together with: (CUG)12 RNA, 1000 nM MBNL1; Ki = 18 ± 5 µM
SMILES = COc1ccc(/C=C/c2cc(O)cc(O)c2)cc1O; target = XDH (Bos taurus, UniProt P80457); test = uric acid formation, inhibitor; conditions = pH 10.0, 25 °C, together with: xanthine; Ki = 3.5 ± 0.2 µM
SMILES = COC(=O)C1(CCCCl)C=C(C(=O)OC(C)(C)C)C(=O)CC1 (stereo not drawn); target = MAPK8; test = ligand displacement, FP; Ki = 47.6 µM
SMILES = O=C(Nc1cccc(-c2nn[nH]n2)c1)c1cc(-c2ccco2)cc(C(F)(F)F)c1; target = Beta-lactamase CTX-M-14; test = enzyme activity, inhibitor, absorbance; conditions = pH 7; Ki = 17.2 µM
SMILES = Cc1ccccc1-c1cc(N2CCN(Cc3ccccc3)CC2)ccc1N(C)C(=O)C(C)(C)c1cc(C(F)(F)F)cc(C(F)(F)F)c1; target = TACR1; test = cell-free assay; conditions = pH 7.4; Ki = 0.11 µM
SMILES = CN(C(=O)CNC(=O)[C@@H]1CCCN1C(=O)[C@@H]1CCCN1C(=O)[C@H](CCCNC(=N)N)NC(=O)[C@@H](N)CCCCN)[C@@H](Cc1ccccc1)C(=O)N[C@@H](CO)C(=O)N1CCC[C@H]1C(=O)N[C@@H](Cc1ccccc1)C(=O)O; target = BDKRB1 (Homo sapiens, UniProt P46663); test = ligand displacement, radioligand; conditions = pH 7.4, cell membranes; Ki = 2.03 µM
SMILES = O=C(Nc1cccc(-c2nn[nH]n2)c1)c1cc(-n2ccnc2)cc(C(F)(F)F)c1; target = Beta-lactamase CTX-M-14; test = enzyme activity, inhibitor, absorbance; conditions = pH 7; Ki = 30.5 µM
SMILES = CCCCOc1ccc(C(=O)OCCN2CC=CCC2)cc1; target = CHRM4; test = ligand displacement, radioligand; conditions = cell membranes; Ki = 11.2 µM
SMILES = C[C@H](CCC(=O)O)[C@H]1CC[C@H]2[C@@H]3[C@H](O)C[C@H]4C[C@H](OC(=O)CCC(=O)O)CC[C@]4(C)[C@H]3CC[C@]12C; target = SLC10A1; test = taurocholate uptake, inhibitor; system = HEK293 expressing SLC10A1; Ki = < 25 µM
SMILES = CC(=O)N[C@@H](CC(C)C)C(=O)N[C@@H](CC(=O)O)C(=O)N[C@H](C(=O)N1CCC[C@H]1C(=O)N[C@H](C=O)CC(=O)O)C(C)C; target = CASP1; test = enzyme activity, inhibitor, fluorescence; conditions = pH 7; Ki = 0.0501 µM
SMILES = CC(C)C[C@@H](NC(=O)[C@@H](CCCCN)NC(=O)CNC(=O)CNC(=O)[C@@H]1CSSC[C@H](N)C(=O)N2CCC[C@H]2C(=O)N[C@@H](CC(N)=O)C(=O)NCC(=O)N[C@@H](CCCNC(=N)N)C(=O)N1)C(=O)N[C@H](C)C(=O)N[C@H](CCCCN)C(=O)N[C@H](CC(C)C)C(=O)N[C@H](C)C(=O)N[C@H](CCCCN)C(=O)N[C@H](CCCCN)C(=O)N[C@H](CC(C)C)C(=O)N[C@H](C)C(=O)N[C@H](CCCCN)C(=O)N[C@H](CC(C)C)C(=O)N[C@H](C)C(=O)N[C@H](CCCCN)C(=O)O; target = Aminopeptidase N (Rattus norvegicus, UniProt P15684); test = enzyme activity, competitive inhibitor; conditions = together with: L-leucine p-nitroanilide; Ki = 7 ± 3 µM
SMILES = C[C@H](CCC(=O)O)[C@H]1CC[C@H]2[C@@H]3[C@H](OC(=O)c4ccccc4)C[C@H]4C[C@H](O)CC[C@]4(C)[C@H]3CC[C@]12C; target = SLC10A1; test = transporter uptake, inhibitor, radiometric; Ki = 15.4 µM
SMILES = Fc1cc(OCCCN2CCN(c3cccc4sccc34)CC2)ccc1CN1CCOCC1; target = 5-hydroxytryptamine receptor 2A; test = cell-free assay; Ki = 0.012 µM
SMILES = CC(C)CNC(=O)[C@@H](NC[C@@H](O)[C@H](Cc1ccccc1)NC(=O)c1cc(C(=O)N(C)[C@H](C)c2ccccc2)cc(N(C)S(C)(=O)=O)c1)[C@H](C)O; target = BACE2; Ki = 0.0805 ± 0.0047 µM
SMILES = CC(=O)NCC1OC(OP(=O)(O)OP(=O)(O)OCC2OC(n3cnc4c(=O)[nH]c(N)nc43)C(O)C2O)C(F)C(O)C1O (stereo not drawn); target = FUT9; test = enzyme activity, inhibitor; Ki = 21.5 µM
SMILES = N=C(N)NCCC[C@H](NC(=O)[C@@H](N)Cc1ccccc1)C(=O)NCCOCCOCC(=O)N1CCCC1; target = FAP (Homo sapiens, UniProt Q12884); test = enzyme activity, inhibitor, fluorescence; conditions = pH 7.5; Ki = > 1000 µM

Some of these lines once more:
SMILES = CCC(=O)NCc1cc(C(=O)NCCCC(=O)NCCCCCOc2nsnc2C2=CCCN(C)C2)cc(C(=O)NCCN2CCN(CCCCC3CCN(CC(=O)N4c5ccccc5NC(=O)c5ccccc54)CC3)CC2)c1; target = CHRM4; test = ligand displacement, radioligand; Ki = 0.00135 µM
SMILES = COC(=O)[C@@]1(Cc2ccccc2)C=C(C(=O)OC(C)(C)C)C(=O)CC1; target = MAPK8; test = ligand displacement, FP; Ki = 1.8 µM
